Experimental data collected from several papers.
“And” joins repeats or separate records; there may be more than shown. ± marks the error that the study gave.

Cn1cc(-c2ccc(-c3cncc(Cl)c3N3CCC4(CCNC4=O)CC3)cc2)cn1: “log2 fold change” 2.02 (COLO 205; gene expression, microarray, measured: ANXA2 mRNA; concentration not given, 2 h; relative to: untreated cells).
COc1cc(C(=O)Nc2cc(OC)c3ccccc3n2)nc(C(=O)Nc2cc(OC)c3ccccc3n2)c1 has a ΔTm of 0.3 ± 0.3 K (Bcl2 G-quadruplex DNA; FRET melting; 1 µM, pH 7.4, with: 60 mM potassium).
Nc1nc2c(nc(Br)n2[C@@H]2O[C@@H]3COP(=O)(O)O[C@H]3[C@H]2O)c(=O)[nH]1 gave an EC50 of roughly 2.3 µM (cone cGMP-gated CNG channel (Otospermophilus beecheyi); Hill fit).
CCCCN1CCCC[C@H]1C(=O)Nc1c(C)cccc1C has a trans-stimulation ratio of 0.43 (human H+/organic cation antiporter; hCMEC/D3; 250 µM, 2 min, with: 1 µM DPH preloading 30 min; relative to: control).
CNCc1ccc(-c2[nH]c3cc(F)cc4c3c2CCNC4=O)cc1: “AST/ALT increased incidence” 25% (human patients; oral, 360 mg twice daily, all grades).
CCCCCCCC(=O)OC[C@H](COP(=O)(O)O[C@@H]1[C@H](O)[C@H](O)[C@@H](OP(=O)(O)O)[C@H](OP(=O)(O)O)[C@H]1O)OC(=O)CCCCCCC — result for “maximal open probability”: 0.69 (Kv7.2/Kv7.3(EEE) mutant channel; channel activation, activator, activation curve fit; model 5).
CN(C)CCCOc1cc(NC(=O)c2cc(Cl)cc(C(=O)Nc3cc(OCCCN(C)C)c4ccccc4n3)n2)nc2ccccc12 gave a ΔTm of 22.7 ± 0.8 K (Bcl2 G-quadruplex DNA; FRET melting; 1 µM, pH 7.4, with: 60 mM potassium).
Cc1n[nH]c2ccc(-c3cc(OC[C@@H](N)Cc4ccccc4)cnc3-c3ccoc3)cc12 — result for “log2 fold change”: -3.3 (orf19.6492 kinase Candida albicans; MIB/MS competition binding; Candida albicans cell lysate; 10 µM; relative to: DMSO, lower = stronger binding).
CCCCNc1ccc(C(=O)OCCN(C)C)cc1 has an IC50 of 26.5 µM (bovine CNG channel; ion current, pore blocker, inside-out patch clamp; Xenopus oocytes; 20 °C, +60 mV, pH 7.2, with: cGMP 2 mM).
With COc1cc(NCCCC(C)N)c2nccc(Cl)c2c1 (stereo not drawn) the IC50 was greater than 22 µM (Hsp90, human cancer cell lysate; binding, fluorescence polarization).
c1ccc(-c2n[nH]cc2-c2ccnc3ccccc23)nc1: “log2 fold change” 1.4 (orf19.6492 kinase Candida albicans; MIB/MS competition binding; Candida albicans cell lysate; 100 nM; relative to: DMSO, lower = stronger binding).
The ΔTm of CN(C)CCCOc1cc(NC(=O)c2cccc(C(=O)Nc3cc(OCCCN(C)C)c4ccccc4n3)n2)nc2ccccc12 is reported as 18.2 ± 0.6 K (Bcl2 G-quadruplex DNA; FRET melting; 1 µM, pH 7.4, with: 60 mM potassium).
Under “phospho-Thr359/Ser363 RSK1-3 to total ratio”, CSc1cc(Oc2ccnc3[nH]c(=O)cnc23)ccc1NC(=O)Nc1cc(C(C)(C)C)nn1-c1ccccc1 is recorded as 0.62 (p90 ribosomal S6 kinases 1-3; reverse phase protein array; patient-derived A cell clone line, human; 1 µM, 4 h; relative to: DMSO).
NCCCOc1cc(NC(=O)c2cc(Cl)cc(C(=O)Nc3cc(OCCCN)c4ccccc4n3)n2)nc2ccccc12 has a ΔTm of 18.9 ± 0.7 K (Bcl2 G-quadruplex DNA; FRET melting; 1 µM, pH 7.4, with: 60 mM potassium).
c1csc(CNc2cc[nH]n2)c1: “cells with numerical aberrations” 0% (human peripheral blood lymphocytes (female); 1130 µg/mL, 4 h, initial, with: with S9).
CNc1c(C)n(C)n(-c2ccccc2)c1=O gave a trans-stimulation ratio of 1.2 (human H+/organic cation antiporter; hCMEC/D3; 250 µM, 2 min, with: 1 µM DPH preloading 30 min; relative to: control).
COc1ccc(NC(=O)CSc2nnc(-c3ccncc3)[nH]2)cc1 gave a Kd of greater than 100 µM (Cyclin-dependent kinase 2, with cyclin A (CDK2, Homo sapiens, UniProt P24941)).
CC(=O)NCCCC[C@H](NC(=O)CNC(=O)[C@H](CCCNC(=N)N)NC(C)=O)C(=O)Nc1ccc2c(C)cc(=O)oc2c1 has a kcat of 0.002 ± 0.001 s⁻¹ (human K353L/Y782F mutant enzyme; substrate, fluorogenic).
For N#Cc1ccc2c(-c3ccncc3)c(-c3ccc(F)cc3)nn2c1, “log2 fold change” read 0.0862 (orf19.4518 kinase Candida albicans; MIB/MS competition binding; Candida albicans cell lysate; 10 µM; relative to: DMSO, lower = stronger binding).
With CC(C)Oc1c(NC(=O)c2ccc(NC(=O)[C@H](CC(N)=O)NC(=O)c3ccc(NC(=O)c4ccc(C#N)cc4)cc3)cc2)ccc(C(=O)Nc2ccc(C(=O)O)cc2)c1O the concentration was 0.102 ± 0.0036 µg/mL (Escherichia coli ATCC 25922; neutropenic male CD-1 mice, muscle; iv then sc, 67.5 mg/kg/day, 24 h after infection, thigh infection model).
For N#Cc1ccn2c(-c3ccncc3)c(-c3ccc(F)cc3)nc2c1, “log2 fold change” read -0.0608 (orf19.4518 kinase Candida albicans; MIB/MS competition binding; Candida albicans cell lysate; 100 nM; relative to: DMSO, lower = stronger binding).
The inhibition of COc1cc(C(=O)NS(=O)(=O)c2ccccc2C)ccc1Cc1cn(C)c2ccc(NC(=O)OC3CCCC3)cc12 is reported as 94.1% and 94.9% and 93.6% and 82.6% (native VRAC; ion current, inhibitor, whole-cell patch clamp; wild-type HCT cells; 30 µM, pH 7.4, extracellular pH).
For CN(C)CCCNc1cc2c(=O)n(CCCN(C)C)c(=O)c3c4[nH]c5ccccc5[nH]c4c4c(=O)n(CCCN(C)C)c(=O)c1c4c23, the ΔTm was 1.2 ± 1.1 °C (HIV-1 LTR-III G-quadruplex; FRET melting; 0.25 µM, K+ 100 mM).
For Oc1ccccc1-c1n[nH]cc1-c1ccnc2ccccc12, “log2 fold change” read 0.02 (TPK2 (Candida albicans); kinase binding, MIB/MS competition; Candida albicans lysate; 1 µM; relative to: DMSO).
O=C(Nc1cc(OCCN2CCCC2)c2ccccc2n1)c1cc(Cl)cc(C(=O)Nc2cc(OCCN3CCCC3)c3ccccc3n2)n1 has a ΔTm of 8.6 ± 0.9 K (Bcl2 G-quadruplex DNA; FRET melting; 1 µM, pH 7.4, with: 60 mM potassium).
With COc1ccc(NC(=O)CSc2nnnn2C)cc1 the Kd was greater than 100 µM (CDK2 (Homo sapiens, UniProt P24941); binding).
CN(C)CCCn1c(=O)c2ccc3c(=O)n(CCCN(C)C)c(=O)c4c5[nH]c6cc([N+](=O)[O-])ccc6[nH]c5c(c1=O)c2c34 gave a ΔTm of 7 ± 0.7 °C (HIV-1 LTR-III G-quadruplex; FRET melting; 0.25 µM, K+ 100 mM).
The ΔTm of C#CCOc1cc(C(=O)Nc2cc(OCCCN)c3ccccc3n2)nc(C(=O)Nc2cc(OCCCN)c3ccccc3n2)c1 is reported as 7.5 ± 0.4 K (Bcl2 G-quadruplex DNA; FRET melting; 1 µM, pH 7.4, with: 60 mM potassium).
For N[C@H]1CONC1=O, the trans-stimulation ratio was 1.34 (human H+/organic cation antiporter; hCMEC/D3; 250 µM, 2 min, with: 1 µM DPH preloading 30 min; relative to: control).
c1coc(-c2n[nH]cc2-c2ccnc3ccccc23)c1 — result for “log2 fold change”: -0.04 (TPK2 (Candida albicans); kinase binding, MIB/MS competition; Candida albicans lysate; 10 µM; relative to: DMSO).
